Experimental data pooled from the literature.
Lines come from different studies, so protocols differ. Numbers after ± are the reported error.

Compound = CCCCCCCCCCCCCCCC(=O)N[C@@H](CCC(=O)NCCOCCOCCC(=O)NCCOCCOCCC(=O)NCCCC[C@H](NC(=O)[C@H](CC(=O)O)NC(=O)[C@H](CC(C)C)NC(=O)[C@H](Cc1ccc(O)cc1)NC(=O)[C@H](CCCCN)NC(=O)[C@H](CO)NC(=O)[C@H](Cc1ccc(O)cc1)NC(=O)[C@H](CC(=O)O)NC(=O)[C@H](CO)NC(=O)[C@@H](NC(=O)[C@H](Cc1ccccc1)NC(=O)[C@@H](NC(=O)CNC(=O)[C@H](CCC(N)=O)NC(=O)[C@@H](CO)NC(=O)[C@@H](N)Cc1c[nH]cn1)[C@@H](C)O)[C@@H](C)O)C(=O)N[C@@H](CCCNC(=N)N)C(=O)N[C@@H](CCCNC(=N)N)C(=O)N[C@@H](C)C(=O)N[C@@H](CCC(N)=O)C(=O)N[C@@H](CC(=O)O)C(=O)N[C@@H](Cc1ccccc1)C(=O)N[C@H](C(=O)N[C@@H](CCC(N)=O)C(=O)N[C@@H](Cc1c[nH]c2ccccc12)C(=O)N[C@@H](CC(C)C)C(=O)N[C@@H](CC(C)C)C(=O)N[C@@H](CC(N)=O)C(=O)N[C@H](C(=O)NCC(=O)NCC(=O)N1CCC[C@H]1C(=O)N[C@@H](CO)C(=O)N[C@@H](CO)C(=O)NCC(=O)N[C@@H](C)C(=O)N1CCC[C@H]1C(=O)N1CCC[C@H]1C(=O)N1CCC[C@H]1C(=O)N[C@@H](CO)C(N)=O)[C@@H](C)O)C(C)C)C(=O)O; system = rhesus monkey, male; setting = subcutaneous, 60 µg/kg once daily, 28 days; quantity = total bilirubin; result = 5.4 ± 1.1 µmol/L
Compound = CC(CCC(=O)NCC(=O)O)C1CCC2C3C(O)CC4CC(OC5OC(C(=O)O)C(O)C(O)C5O)CCC4(C)C3CCC12C (stereo not shown); system = human men; setting = dose not given, SLCO1B1 *14/*35; quantity = plasma concentration; result = 27.1 ng/mL
Compound = CSCC[C@H](NC(=O)CNC(=O)[C@H](CCCCN)NC(=O)[C@H](CC(C)C)NC(=O)[C@@H]1CCCN1C(=O)[C@H](CO)NC(=O)[C@H](Cc1c[nH]cn1)NC(=O)[C@H](Cc1c[nH]c2ccccc12)NC(=O)[C@H](CCCNC(=N)N)NC(=O)[C@H](CC(C)C)NC(=O)[C@H](CCCNC(=N)N)NC(=O)[C@H](Cc1c[nH]c2ccccc12)NC(=O)[C@H](CS)NC(=O)CCCCCNC(=O)CN1CCN(CC(=O)O)CCN(CC(=O)O)CCN(CC(=O)O)CC1)C(=O)O [copper-64 labelled]; system = male C57BL/6J mice, B16-F10 tumour, intestinal lymph node; setting = intravenous, 1.85 MBq, 18 h; quantity = tissue uptake; result = 0.99 %ID/g
Compound = CC[C@H](C)[C@H](NC(=O)[C@H](CCCCN)NC(=O)CNC(=O)[C@H](CC(C)C)NC(=O)[C@H](Cc1ccccc1)NC(=O)[C@H](CCCCN)NC(=O)[C@H](CO)NC(=O)[C@H](Cc1ccccc1)NC(=O)[C@H](Cc1c[nH]c2ccccc12)NC(=O)[C@H](CCC(N)=O)NC(=O)[C@@H](NC(=O)[C@H](Cc1ccccc1)NC(=O)CCCCCNC(=O)CN1CCN(CC(=O)O)CCN(CC(=O)O)CCN(CC(=O)O)CC1)C(C)C)C(=O)N[C@@H](CCC(=O)O)C(=O)N1CCC[C@H]1C(=O)N[C@@H](CC(=O)O)C(=O)N[C@H](C(=O)N[C@@H](CO)C(=O)N[C@@H](CCC(N)=O)C(=O)N[C@H](C(=O)N[C@@H](CCC(N)=O)C(=O)N[C@@H](CC(=O)O)C(=O)N1CCC[C@H]1C(=O)N[C@@H](CC(N)=O)C(=O)N[C@@H](CC(=O)O)C(=O)N[C@@H](CCC(N)=O)C(=O)N[C@@H](Cc1ccc(O)cc1)C(=O)N[C@@H](CCC(=O)O)C(=O)N1CCC[C@H]1C(=O)N[C@@H](Cc1ccccc1)C(=O)O)C(C)C)C(C)C [copper-64 labelled]; system = GZMB-/- mice, CT26 tumour-bearing, large intestine; setting = 2 h, vehicle-treated; quantity = tissue uptake; result = 3.78 ± 1.6 %ID/g
Compound = CCCCCCCCCCCC(=O)N[C@@H](CCCNC(=N)N)C(=O)N[C@@H](Cc1c[nH]c2ccccc12)C(=O)N[C@@H](CCCCN)C(=O)N[C@H](C(=O)N[C@@H](Cc1ccccc1)C(=O)N[C@@H](CCCCN)C(=O)N[C@@H](CCCCN)C(=O)N[C@H](C(=O)N[C@@H](CCC(=O)O)C(=O)N[C@@H](CCCCN)C(=O)N[C@H](C(=O)NCC(=O)N[C@@H](CCC(N)=O)C(=O)N[C@@H](CC(N)=O)C(=O)N[C@H](C(=O)N[C@@H](CCCNC(=N)N)C(=O)N[C@@H](CC(=O)O)C(=O)NCC(=O)N[C@H](C(=O)N[C@H](C(=O)N[C@@H](CCCCN)C(=O)N[C@@H](C)C(=O)NCC(=O)N1CCC[C@H]1C(=O)N[C@@H](C)C(=O)N[C@H](C(=O)N[C@@H](C)C(=O)N[C@H](C(=O)N[C@H](C(=O)NCC(=O)N[C@@H](CCC(N)=O)C(=O)N[C@@H](C)C(=O)N[C@@H](C)C(=O)N[C@H](C(=O)N[C@H](C(N)=O)[C@@H](C)CC)[C@@H](C)O)C(C)C)C(C)C)C(C)C)C(C)C)[C@@H](C)CC)[C@@H](C)CC)C(C)C)[C@@H](C)CC)[C@@H](C)CC; system = mouse erythrocytes; setting = 32 µM, 1 h, 37 °C; quantity = hemolysis; result = < 8%
Compound = CC(=O)NCCCC[C@@H]1NC(=O)[C@H](Cc2c[nH]c3c(C)cccc23)NC(=O)[C@H]([C@@H](C)O)NC(=O)[C@H](CC(N)=O)NC(=O)[C@@H](NC(C)=O)C(C)(C)SSC(C)(C)[C@@H](C(=O)N[C@@H](Cc2ccc(OCCN)cc2)C(=O)N[C@@H](Cc2ccc3ccccc3c2)C(=O)NC2(C(=O)N[C@@H](CCC(=O)O)C(=O)N[C@@H](CC(N)=O)C(=O)N[C@@H](Cc3cccnc3)C(=O)N(C)CC(N)=O)CCOCC2)NC1=O; system = cynomolgus monkey, intervertebral ligament; setting = intravenous, 1 mg/kg; quantity = tissue to plasma ratio; result = 156%
Compound = CSCC[C@H](N)C(=O)N[C@@H](C)C(=O)N[C@@H](Cc1c[nH]c2ccccc12)C(=O)N[C@@H](Cc1c[nH]cn1)C(=O)N[C@@H](CC(=O)O)C(=O)N[C@@H](CC(=O)O)C(=O)N[C@@H](CCC(=O)O)C(=O)N[C@@H](CCC(=O)O)C(=O)N[C@@H](Cc1ccccc1)C(=O)N[C@@H](C)C(=O)N[C@@H](CCCNC(=N)N)C(=O)N[C@@H](CCCNC(=N)N)C(=O)N[C@@H](CCCNC(=N)N)C(=O)N[C@@H](CCCNC(=N)N)C(=O)NCCCCCC(=O)NCCCCC(NC(=O)CCCCCNC(=O)[C@H](CCCNC(=N)N)NC(=O)[C@H](CCCNC(=N)N)NC(=O)[C@H](CCCNC(=N)N)NC(=O)[C@H](CCCNC(=N)N)NC(=O)[C@H](C)NC(=O)[C@H](Cc1ccccc1)NC(=O)[C@H](CCC(=O)O)NC(=O)[C@H](CCC(=O)O)NC(=O)[C@H](CC(=O)O)NC(=O)[C@H](CC(=O)O)NC(=O)[C@H](Cc1c[nH]cn1)NC(=O)[C@H](Cc1c[nH]c2ccccc12)NC(=O)[C@H](C)NC(=O)[C@@H](N)CCSC)C(=O)NCCCCC(NC(=O)C(CCCCNC(=O)CCCCCNC(=O)[C@H](CCCNC(=N)N)NC(=O)[C@H](CCCNC(=N)N)NC(=O)[C@H](CCCNC(=N)N)NC(=O)[C@H](CCCNC(=N)N)NC(=O)[C@H](C)NC(=O)[C@H](Cc1ccccc1)NC(=O)[C@H](CCC(=O)O)NC(=O)[C@H](CCC(=O)O)NC(=O)[C@H](CC(=O)O)NC(=O)[C@H](CC(=O)O)NC(=O)[C@H](Cc1c[nH]cn1)NC(=O)[C@H](Cc1c[nH]c2ccccc12)NC(=O)[C@H](C)NC(=O)[C@@H](N)CCSC)NC(=O)CCCCCNC(=O)[C@H](CCCNC(=N)N)NC(=O)[C@H](CCCNC(=N)N)NC(=O)[C@H](CCCNC(=N)N)NC(=O)[C@H](CCCNC(=N)N)NC(=O)[C@H](C)NC(=O)[C@H](Cc1ccccc1)NC(=O)[C@H](CCC(=O)O)NC(=O)[C@H](CCC(=O)O)NC(=O)[C@H](CC(=O)O)NC(=O)[C@H](CC(=O)O)NC(=O)[C@H](Cc1c[nH]cn1)NC(=O)[C@H](Cc1c[nH]c2ccccc12)NC(=O)[C@H](C)NC(=O)[C@@H](N)CCSC)C(N)=O (stereo partly shown); system = C57BL/6 mouse female, ovary; setting = dose not given, 3 h; scale = baseline: total; quantity = mean tissue distribution; result = 0.24%
Compound = CC1(C)C(=O)N(c2ccc(C#N)c(C(F)(F)F)c2)C(=S)N1c1ccc(C(=O)O)c(F)c1; system = male human, plasma; setting = oral, 40 mg, single dose, fasted; quantity = Tmax; result = 72 h
Compound = O=C1NC2(CC2)COc2ncc(F)cc2[C@H]2COCCN2c2ccn3ncc1c3n2; system = Sprague-Dawley rat, male, blood; setting = oral, 2.5 mg/kg/day, 4 weeks, end of treatment, subacute toxicity; quantity = haematocrit; result = 44.9 ± 2.6%
Compound = CC(C)(C)C(=O)OCOP(=O)(OCOC(=O)C(C)(C)C)C1CCCN(O)C1=O (stereo not shown); tested on = NCI-H322M; quantity = log LC50; result = > -4 log M
Compound = N#[11C]c1ccc(-c2csc(NN=C3CCCC3)n2)cc1; system = C57BL/6 mice, male, spleen; setting = intravenous, 3 MBq, 15 min; quantity = radioactivity uptake; result = 4.05 ± 0.04 %ID/g
Compound = CN1Cc2cc(Cl)ccc2-n2c(nnc2C2CCN(c3cccc([18F])n3)CC2)C1; system = C57BL/6 mouse male, testis; setting = intravenous, 3.7 MBq, 1 min; quantity = tissue uptake; result = 0.47 ± 0.08 %ID/g
Compound = C[C@]12COc3ccc(OCc4ccccc4)cc3[C@H]1CCN2; test = lipid PAMPA; system = artificial lipid membrane; setting = 10 µM, 16 h; quantity = recovery; result = 3.5%
Compound = CC(C)[C@@H]1NC(=O)CNC(=O)[C@H](CC(N)=O)NC(=O)[C@H](CCCNC(=N)N)NC(=O)[C@H](Cc2ccc(O)cc2)NC(=O)[C@H](C(C)C)NC(=O)[C@@H](NC(=O)[C@@H](NC(=O)[C@H](CC(N)=O)NC(=O)[C@H](Cc2c[nH]c3ccccc23)NC(=O)[C@H](C)NC(=O)[C@H](Cc2ccccc2)NC(=O)CNC(=O)[C@H](CCCCN)NC(=O)[C@H](Cc2ccccc2)NC(=O)[C@H](Cc2ccccc2)NC(=O)[C@H](CCCCN)NC(=O)OCC2c3ccccc3-c3ccccc32)C(C)C)CSSC[C@@H](C(=O)N[C@@H](Cc2c[nH]cn2)C(=O)N[C@@H](CCCNC(=N)N)C(=O)N[C@@H](CCCNC(=N)N)C(=O)N[C@@H](C)C(=O)N[C@@H](CC(N)=O)C(N)=O)NC(=O)[C@H](C(C)C)NC(=O)[C@H](CCCNC(=N)N)NC1=O; system = ICR mouse, blood; setting = intramammary, 10 mg/kg, day 5, 3 d dosing; quantity = haemoglobin; result = 121 ± 3.3 g/L
Compound = C=Cc1c(C)c2cc3nc(c(CC(=O)[O-])c4[n-]c(cc5nc(cc1[n-]2)C(C)=C5CC)c(C)c4C(=O)[O-])C(CCC(=O)[O-])C3C.[Cu+2].[Na+].[Na+].[Na+] (stereo not shown); system = Wistar rat, male; setting = oral, 500 mg/kg daily, 28 days; quantity = serum AST; result = 107 ± 12 U/L
Compound = C=CC(=O)Nc1cccc(Cn2ncc3cnc(Nc4cnn(CCOC)c4)nc32)c1; system = male Sprague-Dawley rat; setting = oral, 180 mg/kg/day, day 28, 28-day subacute toxicity; quantity = blood MPV; result = 5.76 ± 0.38 fL
Compound = CCOC(=O)N1CCN(C(c2cccs2)c2c(C)[nH]c3ccccc23)CC1 (stereo not shown); test = cytotoxicity, CellTiter-Glo; system = primary brown adipocytes, mouse C57BL/6; setting = 48 h; quantity = CC50; result = > 122 µM
Compound = N=C(N)NCCC[C@@H](NC(=O)[C@H](N)Cc1c[nH]c2ccccc12)C(=O)N[C@H](CCCCN)C(=O)N[C@H](Cc1c[nH]c2ccccc12)C(=O)N[C@H](CCCNC(=N)N)C(=O)N[C@H](CCCCN)C(=O)N[C@H](Cc1c[nH]c2ccccc12)C(=O)N[C@H](CCCNC(=N)N)C(=O)N[C@H](CCCCN)C(=O)N[C@H](Cc1c[nH]c2ccccc12)C(=O)N[C@H](CCCNC(=N)N)C(=O)N[C@H](CCCCN)C(N)=O; system = mouse, lung; setting = intravenous, 40 mg/kg single dose, 7 days; quantity = organ index; result = 0.789
Compound = CCCC[C@H]1C(=O)N(C)[C@@H](CCCC)C(=O)N[C@@H](CCCNC(=O)CN2CCN(CC(=O)O)CCN(CC(=O)O)CCN(CC(=O)O)CC2)C(=O)N[C@H](C(=O)NCC(N)=O)CSCC(=O)N[C@@H](Cc2ccc(O)cc2)C(=O)N(C)[C@@H](C)C(=O)N[C@@H](CC(N)=O)C(=O)N2CCC[C@H]2C(=O)N[C@@H](Cc2c[nH]cn2)C(=O)N[C@@H](CC(C)C)C(=O)N(C)CC(=O)N[C@@H](Cc2c[nH]c3ccccc23)C(=O)N[C@@H](CO)C(=O)N[C@@H](Cc2c[nH]c3ccccc23)C(=O)N1C [gallium-68 labelled]; system = NOD/SCID mice, CHO-hPD-L1 xenograft, muscle; setting = 60 min, together with: blocking agent 50 µg co-injected; quantity = tissue uptake; result = 2.16 ± 0.59 %ID/g

Excerpt of the above:
Compound = CCOC(=O)N1CCN(C(c2cccs2)c2c(C)[nH]c3ccccc23)CC1 (stereo not shown); test = cytotoxicity, CellTiter-Glo; system = primary brown adipocytes, mouse C57BL/6; setting = 48 h; quantity = CC50; result = > 122 µM
